# Published values of several laboratories.
# Compare with care: the assays were run in different laboratories. Several values in a cell are separate wells, animals, samples, runs or records. ± gives the spread as reported.
# CHRM2: Muscarinic acetylcholine receptor M2 (CHRM2, Homo sapiens, UniProt P08172)
# Trypanothione synthetase: Trypanothione synthetase (Trypanosoma brucei brucei, UniProt Q8IEX1)
# FFAR4: Free fatty acid receptor 4 (FFAR4, Homo sapiens, UniProt Q5NUL3)
# Alpha-amylase: Alpha-amylase (Bos taurus, UniProt Q3MHH8)
# USP51: Ubiquitin carboxyl-terminal hydrolase 51 (USP51, Homo sapiens, UniProt Q70EK9)
Compound,target,test,test system,conditions,inhibition
CN1CCN(c2cc(-c3ccncc3)c(-c3ccc4ccccc4c3)nn2)CC1,"PTH2R (Homo sapiens, UniProt P49190)","antagonist, FLIPR",,10 µM,55.1%
O=C(NO)c1ccc(CN2CCCCc3ccccc32)c(F)c1,CHRM2,"radioligand binding, radioligand displacement",,"10 µM, mean of replicates",-5.13%
CC(C)(C)OC(=O)N1CCN(CCNC(=O)CN2C(=O)Cc3c([nH]c4ccc(Br)cc34)-c3ccc(Cl)cc32)CC1,Trypanothione synthetase,"enzyme activity, inhibitor, BIOMOL Green",,30 µM,24.8 ± 3.6%
O=c1cc(NCCCc2ccccc2)[nH]c(=O)[nH]1,FFAR4,"antagonist, β-arrestin recruitment",CHO cells,"10 µM, added: 4 µM TUG-891",14 ± 16%
O=C(CN1C(=O)Cc2c([nH]c3ccc(Br)cc23)-c2ccc(Cl)cc21)N1CCN(c2ncccn2)CC1,Trypanothione synthetase,"enzyme activity, inhibitor, BIOMOL Green",,30 µM,27.3 ± 3.9%
CC1=NNC(=O)C1=NNc1ccc(S(N)(=O)=O)cc1,Alpha-amylase,"enzyme activity, inhibitor, glucose oxidase",,"100 µg/mL, added: dextrin",13.6%
Cn1cc(-c2cnc3ccc(NC(=O)Nc4ccc(F)c(Br)c4)cc3n2)cn1,"TBK1 (Homo sapiens, UniProt Q9UHD2)","kinase binding, KiNativ profiling, item: Lys1 peptide",PANC-1 lysate,1.25 µM,2.4%
COc1cc(C(=O)OCCCN2CCCN(CCCOC(=O)c3cc(OC)c(OC)c(OC)c3)CC2)cc(OC)c1OC,"Equilibrative nucleoside transporter 2 (Homo sapiens, UniProt Q14542)","nucleoside transport, inhibitor",MDCKII cells expressing ENT2,"6.31 µM, added: adenosine",49.4% and 51.6%
CC1=NN(c2ccc(C)cc2)C(=O)C1=NNc1ccc(S(N)(=O)=O)cc1,Alpha-amylase,"enzyme activity, inhibitor, glucose oxidase",,"50 µg/mL, added: dextrin",25.1%
CCCCCCCCNc1[nH]c(=O)[nH]c(=O)c1N=O,FFAR4,"antagonist, β-arrestin recruitment",CHO cells,"10 µM, added: 4 µM TUG-891",26 ± 4%
Cc1nn(-c2nc3c(F)cc(F)cc3s2)c(O)c1C(c1ccccc1C(F)(F)F)c1c(C)nn(-c2nc3c(F)cc(F)cc3s2)c1O,"Cyclic GMP-AMP synthase, catalytic domain; with DNA (CGAS, Homo sapiens, UniProt Q8N884)","cGAS phase separation, inhibitor",,25 µM,93.1%
O=Nc1c(NCCc2ccccc2)[nH]c(=O)[nH]c1=O,FFAR4,"antagonist, β-arrestin recruitment",CHO cells,10 µM,19 ± 8%
O=C1c2c(O)cc(O)cc2O[C@H](c2cc(O)c(O)c(O)c2)[C@H]1O,USP51,inhibitor,,"1 µM, 1 h preincubation, added: Ub-AMC 250 nM",100%
O=C(O)c1cnccn1,"panD (Mycobacteroides abscessus, UniProt B1MGV7)","enzyme activity, 1H-NMR",,"200 µM, added: L-Asp",14%
CC[C@@H]1[C@H](F)C(=O)N[C@@H]1COc1nccc2cc(C(N)=O)c(OC)cc12,"MAP3K21 (Homo sapiens, UniProt Q5TCX8)","ATP-site probe binding, ActivX profiling, item: MLK4",THP-1 cell lysate,"0.01 mM, Lys2 site",7.8%
O=C1C[C@@H](c2ccc(O)cc2)Oc2cc(O)cc(O)c21,USP51,inhibitor,,"1 µM, 1 h preincubation, added: Ub-AMC 250 nM",69%
Cc1ccc(C(=O)Nc2ccc3ccccc3c2)o1,"HVCN1 (Homo sapiens, UniProt Q96D96)","ion current, whole-cell patch-clamp",,"10 µM, hHv1",6.87%
C#Cc1cc(-c2cc(Nc3nc(N[C@@H](C)c4ccc(F)cn4)ncc3Cl)n[nH]2)ccc1C=O,"ERN1 (Homo sapiens, UniProt O75460)","enzyme activity, inhibitor",,0.2 µM,2.66%
CC(C)(C)OC(=O)NCCCCNC(=O)CN1C(=O)Cc2c([nH]c3ccc(Br)cc23)-c2ccc(Cl)cc21,Trypanothione synthetase,"enzyme activity, inhibitor, BIOMOL Green",,30 µM,27.9 ± 4.6%
O=Nc1c(NCCCc2ccccc2)[nH]c(=O)[nH]c1=O,FFAR4,"antagonist, β-arrestin recruitment",CHO cells,"10 µM, added: 4 µM TUG-891",15 ± 12%
O=C(Nc1cccc2c(=O)cc(-c3nnn[nH]3)oc12)c1ccc(OCCCCc2ccccc2)cc1,"Volume-regulated anion channel subunit LRRC8C, part LRRC8A IL1 chimera (LRRC8C, Homo sapiens, UniProt Q8TDW0, Y126F)","ion current, inhibitor, whole-cell patch clamp",HCT LRRC8-/- cells,"10 µM, -100 mV",83.2% and 85.3% and 74.4% and 74.6%
[2H]c1cc(C)c(NC(=O)c2cnc(Nc3cc(N4CCCCC4)nc(C)n3)s2)c(Cl)c1,"MYLK2 (Homo sapiens, UniProt Q9H1R3)",,,0.01 µM,< 30%
CCN1/C(=C/C(C)=O)Sc2ccc(F)cc21,"HRH1 (Homo sapiens, UniProt P35367)",,,10 µM,7.61%
Cc1cc(-c2ccnc3[nH]cc(F)c23)cc(F)c1[C@@]1(O)[C@H](C)CN(C2CCS(=O)(=O)CC2)C[C@@H]1C,"ROCK1 (Homo sapiens, UniProt Q13464)","ATP probe binding, KiNativ",HEK293T cell lysate,1 µM,1%
CC1=NN(c2ccccn2)C(=O)C1=NNc1ccc(S(N)(=O)=O)cc1,Alpha-amylase,"enzyme activity, inhibitor, glucose oxidase",,"100 µg/mL, added: dextrin",11.7%
CCCCCCNc1cc(=O)[nH]c(=O)n1C,FFAR4,"antagonist, β-arrestin recruitment",CHO cells,"10 µM, added: 4 µM TUG-891",19 ± 7%
CC1=NN(c2ccccc2)C(=O)C1=NNc1ccc(S(N)(=O)=O)cc1,Alpha-amylase,"enzyme activity, inhibitor, glucose oxidase",,"50 µg/mL, added: dextrin",22.8%
C[C@]12C=CC(=O)N[C@@H]1CC[C@@H]1[C@@H]2CC[C@]2(C)[C@@H](C(=O)Nc3cc(C(F)(F)F)ccc3C(F)(F)F)CC[C@@H]12,"SRD5A1 (Homo sapiens, UniProt P18405)",HPTLC DHT detection,HaCaT,1 µM,inhibited
CC(C)(C)CCNc1cc(=O)[nH]c(=O)[nH]1,FFAR4,"antagonist, β-arrestin recruitment",CHO cells,"10 µM, added: 4 µM TUG-891",18 ± 5%
OCCCN1CC[C@@H]2C[C@H]1c1cc(-c3ccc(C(F)(F)F)cc3)ccc12,CHRM2,"radioligand binding, PDSP competition binding",,10 µM,< 50%
CCCCCCCNc1[nH]c(=O)[nH]c(=O)c1N=O,FFAR4,"antagonist, β-arrestin recruitment",CHO cells,"10 µM, added: 4 µM TUG-891",27 ± 5%
CC1=NNC(=S)NC(=O)C1/N=N/c1ccc(S(N)(=O)=O)cc1 (stereo not shown),Alpha-amylase,"enzyme activity, inhibitor, glucose oxidase",,"100 µg/mL, added: dextrin",15.5%
O=c1cc(NCCCOc2ccccc2)[nH]c(=O)[nH]1,FFAR4,"antagonist, β-arrestin recruitment",CHO cells,"10 µM, added: 4 µM TUG-891",16 ± 6%
CC1=NN(c2cccc([N+](=O)[O-])c2)C(=O)C1=NNc1ccc(S(N)(=O)=O)cc1,Alpha-amylase,"enzyme activity, inhibitor, glucose oxidase",,"100 µg/mL, added: dextrin",8.64%

# Some of these lines once more:
Compound,target,test,test system,conditions,inhibition
O=C1c2c(O)cc(O)cc2O[C@H](c2cc(O)c(O)c(O)c2)[C@H]1O,USP51,inhibitor,,"1 µM, 1 h preincubation, added: Ub-AMC 250 nM",100%
O=C(O)c1cnccn1,"panD (Mycobacteroides abscessus, UniProt B1MGV7)","enzyme activity, 1H-NMR",,"200 µM, added: L-Asp",14%
